Experimental data pooled from the literature.
Numbered parts are unrelated; each lists some results of a single study.
Sequence of UniProt Q9UIK4 (whole entry, looked up): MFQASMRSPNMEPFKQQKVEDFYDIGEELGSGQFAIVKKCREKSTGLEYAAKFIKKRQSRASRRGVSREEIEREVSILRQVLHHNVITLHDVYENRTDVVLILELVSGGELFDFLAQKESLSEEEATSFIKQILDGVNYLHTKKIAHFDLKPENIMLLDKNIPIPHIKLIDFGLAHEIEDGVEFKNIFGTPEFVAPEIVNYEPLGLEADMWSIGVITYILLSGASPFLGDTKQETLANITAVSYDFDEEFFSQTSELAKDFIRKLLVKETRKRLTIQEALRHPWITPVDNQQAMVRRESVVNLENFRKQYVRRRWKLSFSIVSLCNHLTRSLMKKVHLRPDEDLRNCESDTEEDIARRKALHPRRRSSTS
Sequence of UniProt Q13705 (whole entry, looked up): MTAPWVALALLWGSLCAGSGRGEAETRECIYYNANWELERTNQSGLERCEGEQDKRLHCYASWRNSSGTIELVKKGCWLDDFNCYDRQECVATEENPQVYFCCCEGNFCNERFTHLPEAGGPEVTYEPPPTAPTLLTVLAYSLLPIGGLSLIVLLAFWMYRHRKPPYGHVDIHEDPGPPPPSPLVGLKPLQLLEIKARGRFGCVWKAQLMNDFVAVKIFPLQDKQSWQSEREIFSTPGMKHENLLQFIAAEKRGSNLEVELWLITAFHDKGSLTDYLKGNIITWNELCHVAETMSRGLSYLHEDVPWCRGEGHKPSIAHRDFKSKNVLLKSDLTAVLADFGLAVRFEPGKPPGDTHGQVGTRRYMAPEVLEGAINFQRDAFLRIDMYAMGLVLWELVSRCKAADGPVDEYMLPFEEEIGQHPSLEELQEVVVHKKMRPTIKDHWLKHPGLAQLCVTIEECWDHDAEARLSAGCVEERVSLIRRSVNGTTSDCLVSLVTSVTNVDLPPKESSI
Sequence of UniProt Q8NFD2 (whole entry, looked up): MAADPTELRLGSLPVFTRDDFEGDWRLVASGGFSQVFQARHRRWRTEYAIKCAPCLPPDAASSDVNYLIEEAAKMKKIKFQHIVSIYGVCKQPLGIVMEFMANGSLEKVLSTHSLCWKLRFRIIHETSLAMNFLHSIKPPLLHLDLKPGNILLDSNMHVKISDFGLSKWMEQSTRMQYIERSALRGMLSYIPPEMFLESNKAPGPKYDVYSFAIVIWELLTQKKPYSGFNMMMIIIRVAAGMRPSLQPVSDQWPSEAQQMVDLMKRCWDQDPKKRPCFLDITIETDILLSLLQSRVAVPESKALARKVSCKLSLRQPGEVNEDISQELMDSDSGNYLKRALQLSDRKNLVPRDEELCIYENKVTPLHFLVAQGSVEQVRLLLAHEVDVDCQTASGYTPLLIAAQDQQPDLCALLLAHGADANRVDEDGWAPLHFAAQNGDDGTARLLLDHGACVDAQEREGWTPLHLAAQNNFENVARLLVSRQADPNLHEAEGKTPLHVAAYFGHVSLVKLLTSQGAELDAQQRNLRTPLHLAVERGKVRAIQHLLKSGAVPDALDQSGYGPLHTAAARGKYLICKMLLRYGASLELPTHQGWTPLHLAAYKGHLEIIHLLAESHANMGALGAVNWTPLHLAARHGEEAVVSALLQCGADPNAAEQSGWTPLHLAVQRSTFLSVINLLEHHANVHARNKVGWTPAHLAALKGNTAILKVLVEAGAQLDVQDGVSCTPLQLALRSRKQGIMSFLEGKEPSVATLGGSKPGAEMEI
Sequence of UniProt Q9UBF8 (whole entry, looked up): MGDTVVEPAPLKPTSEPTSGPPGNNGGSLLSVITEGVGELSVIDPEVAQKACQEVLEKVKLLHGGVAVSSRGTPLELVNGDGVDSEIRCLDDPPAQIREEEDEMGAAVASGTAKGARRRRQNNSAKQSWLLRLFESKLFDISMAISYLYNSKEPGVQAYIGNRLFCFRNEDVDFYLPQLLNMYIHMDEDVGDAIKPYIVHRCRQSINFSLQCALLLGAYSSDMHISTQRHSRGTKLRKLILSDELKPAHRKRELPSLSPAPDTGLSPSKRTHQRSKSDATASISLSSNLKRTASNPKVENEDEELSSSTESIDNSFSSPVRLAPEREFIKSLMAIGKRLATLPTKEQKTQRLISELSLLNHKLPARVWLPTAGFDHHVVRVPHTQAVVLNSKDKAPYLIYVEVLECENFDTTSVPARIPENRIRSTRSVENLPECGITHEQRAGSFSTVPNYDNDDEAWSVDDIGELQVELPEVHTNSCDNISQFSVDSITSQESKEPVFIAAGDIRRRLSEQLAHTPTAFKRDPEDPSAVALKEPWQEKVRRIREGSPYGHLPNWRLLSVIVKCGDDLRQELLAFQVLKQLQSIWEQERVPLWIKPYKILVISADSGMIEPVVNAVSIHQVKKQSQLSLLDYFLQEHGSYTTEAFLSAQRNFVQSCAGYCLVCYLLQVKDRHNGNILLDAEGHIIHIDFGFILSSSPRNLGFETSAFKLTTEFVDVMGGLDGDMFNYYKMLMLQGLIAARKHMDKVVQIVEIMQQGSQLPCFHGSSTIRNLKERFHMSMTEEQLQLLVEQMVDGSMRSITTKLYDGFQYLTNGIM
Sequence of UniProt P08069 (whole entry, looked up): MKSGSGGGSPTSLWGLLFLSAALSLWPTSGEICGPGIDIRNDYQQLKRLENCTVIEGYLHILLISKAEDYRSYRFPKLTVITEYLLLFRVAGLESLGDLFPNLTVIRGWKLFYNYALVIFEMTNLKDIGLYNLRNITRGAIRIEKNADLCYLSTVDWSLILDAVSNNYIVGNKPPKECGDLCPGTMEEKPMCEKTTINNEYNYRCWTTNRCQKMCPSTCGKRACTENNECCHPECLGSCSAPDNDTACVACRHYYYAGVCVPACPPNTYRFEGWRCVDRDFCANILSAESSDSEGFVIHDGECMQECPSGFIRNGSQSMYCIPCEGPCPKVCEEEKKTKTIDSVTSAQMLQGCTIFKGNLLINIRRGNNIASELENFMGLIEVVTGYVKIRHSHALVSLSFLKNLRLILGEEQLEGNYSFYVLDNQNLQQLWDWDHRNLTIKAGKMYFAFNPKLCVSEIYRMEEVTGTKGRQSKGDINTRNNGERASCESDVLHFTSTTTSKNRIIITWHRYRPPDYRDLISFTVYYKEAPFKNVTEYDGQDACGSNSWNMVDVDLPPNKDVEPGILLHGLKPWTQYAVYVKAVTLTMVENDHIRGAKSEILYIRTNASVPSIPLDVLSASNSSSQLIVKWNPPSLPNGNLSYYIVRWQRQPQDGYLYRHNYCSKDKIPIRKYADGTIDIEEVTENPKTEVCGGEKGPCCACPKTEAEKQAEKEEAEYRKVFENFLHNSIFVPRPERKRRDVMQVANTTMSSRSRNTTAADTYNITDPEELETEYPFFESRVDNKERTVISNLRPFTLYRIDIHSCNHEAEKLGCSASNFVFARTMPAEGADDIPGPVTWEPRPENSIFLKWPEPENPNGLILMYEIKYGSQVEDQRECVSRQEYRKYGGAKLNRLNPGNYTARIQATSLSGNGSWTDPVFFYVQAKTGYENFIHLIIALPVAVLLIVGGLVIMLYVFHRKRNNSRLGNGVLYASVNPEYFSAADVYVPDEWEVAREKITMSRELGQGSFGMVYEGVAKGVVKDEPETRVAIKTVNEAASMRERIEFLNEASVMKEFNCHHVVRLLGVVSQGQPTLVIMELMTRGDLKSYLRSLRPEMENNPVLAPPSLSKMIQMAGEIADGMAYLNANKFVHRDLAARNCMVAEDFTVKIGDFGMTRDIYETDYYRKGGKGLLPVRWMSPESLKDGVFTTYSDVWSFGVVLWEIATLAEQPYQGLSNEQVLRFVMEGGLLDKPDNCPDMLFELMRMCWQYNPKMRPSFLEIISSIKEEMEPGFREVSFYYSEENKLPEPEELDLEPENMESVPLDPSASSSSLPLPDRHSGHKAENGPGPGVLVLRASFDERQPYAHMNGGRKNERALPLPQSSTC
Sequence of UniProt Q13882 (whole entry, looked up): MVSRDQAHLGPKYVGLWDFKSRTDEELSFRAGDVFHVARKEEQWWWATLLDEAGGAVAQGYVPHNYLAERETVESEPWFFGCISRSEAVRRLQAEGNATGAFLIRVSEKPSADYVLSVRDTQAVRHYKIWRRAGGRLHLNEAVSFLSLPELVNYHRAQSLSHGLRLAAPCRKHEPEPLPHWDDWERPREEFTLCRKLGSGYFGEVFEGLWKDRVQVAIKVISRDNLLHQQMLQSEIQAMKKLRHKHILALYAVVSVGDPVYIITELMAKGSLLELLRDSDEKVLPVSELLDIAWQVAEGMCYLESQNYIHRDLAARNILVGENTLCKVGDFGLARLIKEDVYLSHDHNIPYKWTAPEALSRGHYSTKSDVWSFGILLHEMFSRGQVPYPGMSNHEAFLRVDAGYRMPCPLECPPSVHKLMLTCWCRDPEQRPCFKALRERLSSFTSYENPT
Sequence of UniProt O00141 (whole entry, looked up): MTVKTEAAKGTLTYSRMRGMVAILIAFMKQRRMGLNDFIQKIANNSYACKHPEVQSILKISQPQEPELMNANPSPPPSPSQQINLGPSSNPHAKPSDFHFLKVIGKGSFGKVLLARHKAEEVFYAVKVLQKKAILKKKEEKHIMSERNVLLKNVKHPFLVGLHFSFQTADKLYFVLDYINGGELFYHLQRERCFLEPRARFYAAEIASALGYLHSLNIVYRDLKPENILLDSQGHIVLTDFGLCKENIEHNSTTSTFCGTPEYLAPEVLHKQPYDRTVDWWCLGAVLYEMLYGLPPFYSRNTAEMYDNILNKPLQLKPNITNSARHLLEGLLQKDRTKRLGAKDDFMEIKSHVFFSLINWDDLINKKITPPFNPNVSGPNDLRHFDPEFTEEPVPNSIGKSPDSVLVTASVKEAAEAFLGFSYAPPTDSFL

Series 1
Target: Phosphate system positive regulatory protein PHO4, full length, GST-tagged (PHO4, Saccharomyces cerevisiae, UniProt P07270, residues 1-312)
Sequence of UniProt P07270 (whole entry, looked up): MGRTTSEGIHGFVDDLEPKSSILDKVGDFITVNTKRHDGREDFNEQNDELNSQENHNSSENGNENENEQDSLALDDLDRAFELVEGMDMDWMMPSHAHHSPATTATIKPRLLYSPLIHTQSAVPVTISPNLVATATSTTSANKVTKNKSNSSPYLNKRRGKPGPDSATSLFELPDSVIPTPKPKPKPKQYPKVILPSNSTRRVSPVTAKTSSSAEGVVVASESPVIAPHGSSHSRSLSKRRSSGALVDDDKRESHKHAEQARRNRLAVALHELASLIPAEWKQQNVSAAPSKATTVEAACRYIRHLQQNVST
Method: competition protein-binding microarray
Form: double-stranded DNA, one strand shown
Sample: in vitro
Concentration: 2 µM
Notes: whole 60-bp probe, lowest competitor level
Added: Cbf1 competitor, 0.05 µM
Direction: higher = stronger binding
All sequences stand within: … GTCTTGATTCGCTTGACGCTGCTG
Oligonucleotide	fluorescence intensity [a.u.]
GACTCTGAAAAGGGTACCGTGACTCGGAAAGAAGTT	3760
TGCGCAACAACTTGCGAGGTGGGTGTATGTCTAGAA	5050
GCTGACCCTATAACGCGCGTGAAGTAACAGCGATCT	5040
CTTTTTCGCGGGATTGTCGTGCTTTTCAACCATTTT	5580
CGCTGCAGCCGCTGCCACGCGTTCCCCGCCCGAGCC	8170
CTTCTGTAAATTTGCCGGGTGGGTGGACGCGCCCCG	4950
CGGGGTTAAGTTTGGGAGGTGGGTGGCTTGCAGCAG	4860
TGCGCAACAACTTGCACTGTGGGTGTATGTCTAGAA	4880

Series 2
SMILES: Cc1c(NC(=O)c2cc(C(N)=O)nc3cc(F)ccc23)c(C(F)(F)F)nn1Cc1ccc(C(C)(C)C)cc1
Concentration: 1 µM
target	observed	method	remaining binding [%]
Serine/threonine-protein kinase 17B (STK17B, Homo sapiens, UniProt O94768)	cell-free assay	competition with immobilised ligand	100
Macrophage colony-stimulating factor 1 receptor (CSF1R, Homo sapiens, UniProt P07333)	cell-free assay	competition with immobilised ligand	100
Tyrosine-protein kinase ABL1, phosphorylated (ABL1, Homo sapiens, UniProt P00519, F317I)	binding	–	100
Mitogen-activated protein kinase kinase kinase 5 (MAP3K5, Homo sapiens, UniProt Q99683)	cell-free assay	competition with immobilised ligand	100
Cyclin-dependent kinase 11B (CDK11B, Homo sapiens, UniProt P21127)	cell-free assay	competition with immobilised ligand	100
Death-associated protein kinase 2 (DAPK2, Homo sapiens, UniProt Q9UIK4)	cell-free assay	competition with immobilised ligand	76
Serine/threonine-protein kinase Sgk1 (SGK1, Homo sapiens, UniProt O00141)	cell-free assay	competition with immobilised ligand	100
Ankyrin repeat and protein kinase domain-containing protein 1 (ANKK1, Homo sapiens, UniProt Q8NFD2)	cell-free assay	competition with immobilised ligand	100
Tyrosine-protein kinase JAK1, JH2 (JAK1, Homo sapiens, UniProt P23458)	cell-free assay	competition with immobilised ligand	100
Tyrosine-protein kinase ABL1, non-phosphorylated (ABL1, Homo sapiens, UniProt P00519, T315I)	cell-free assay	competition with immobilised ligand	100
Activin receptor type-2B (ACVR2B, Homo sapiens, UniProt Q13705)	cell-free assay	competition with immobilised ligand	100
Insulin-like growth factor 1 receptor (IGF1R, Homo sapiens, UniProt P08069)	cell-free assay	competition with immobilised ligand	100
Cyclin-dependent kinase 4 (CDK4, Homo sapiens, UniProt P11802)	cell-free assay	competition with immobilised ligand	100
Protein-tyrosine kinase 6 (PTK6, Homo sapiens, UniProt Q13882)	cell-free assay	competition with immobilised ligand	100
Phosphatidylinositol 4-kinase beta (PI4KB, Homo sapiens, UniProt Q9UBF8)	cell-free assay	competition with immobilised ligand	72
Ephrin type-A receptor 2 (EPHA2, Homo sapiens, UniProt P29317)	cell-free assay	competition with immobilised ligand	97
Tyrosine-protein kinase Mer (MERTK, Homo sapiens, UniProt Q12866)	cell-free assay	competition with immobilised ligand	86
Receptor-interacting serine/threonine-protein kinase 2 (RIPK2, Homo sapiens, UniProt O43353)	cell-free assay	competition with immobilised ligand	93

Series 3
Organism: Sarcocystis neurona
Observed: parasite growth
Concentration: 10 µM
Notes: secondary screen
Structure (SMILES)	inhibition [%]
CC1(C)S[C@@H]2[C@H](NC(=O)[C@H](N)c3ccc(O)cc3)C(=O)N2[C@H]1C(=O)O	-27
C[C@H]1COc2c(N3CCN(C)CC3)c(F)cc3c(=O)c(C(=O)O)cn1c23	-8.4
CN(CCO)CC(O)Cn1cnc2c1c(=O)n(C)c(=O)n2C.O=C(O)c1cccnc1 (stereo not shown)	-30.5

Series 4
Host: human
Sample: microsomes or S9
Concentration: 2 µM
Time: 0.5 h
SMILES	remaining compound
CN(C)S(=O)(=O)CCCS(=O)(=O)N(C)Cc1ccc(Br)cc1	49.4%
CC(C)(C)c1ccc(OCCOCCOc2ccc(C(C)(C)C)cc2O)c(O)c1	21.2%
O=C(c1scc2c1OCCO2)N1CCCCCC1	55.2%

Series 5
Cell line: HaCaT
Concentration: 100 µM
Time: 36 h
SMILES	viability [%]
O=C(N/N=C/c1ccc([N+](=O)[O-])o1)c1ccc(O)cc1	8.45
CO[C@H]1/C=C/O[C@@]2(C)Oc3c(C)c(O)c4c(O)c(c5c(nc6cc(C)ccn65)c4c3C2=O)NC(=O)/C(C)=C\C=C\[C@H](C)[C@H](O)[C@@H](C)[C@@H](O)[C@@H](C)[C@H](OC(C)=O)[C@@H]1C	17.7
CN1CCN(C2=Nc3ccccc3Oc3ccc(Cl)cc32)CC1	7.59

Mixed results
SMILES	assay	system	conditions	scale	measurement	value
CC(C)n1cnc(-c2ccc(F)cc2)c1-c1ncc(C(=O)Nc2ccc(N3CCN(C)CC3)cc2)[nH]1	–	IPF patients	60 mg once daily, adverse event incidence	–	bile acids increased	0%
CC(=O)N[C@@H](Cc1c[nH]c2ccccc12)C(=O)N[C@@H](CCC(=O)C=[N+]=[N-])C(=O)OC(C)C	measured: 3'-dephospho-CoA-glutathione*	mouse, EL4 tumour-bearing, EL4 tumour	dose not given	baseline: vehicle	log2 fold change	-0.151
